Experimental data collected from several papers.
Compare with care: the assays were run in different laboratories. Several values in a cell are separate wells, animals, samples, runs or records. ± gives the spread as reported.
uncharacterized protein: uncharacterized protein (Spodoptera exigua, UniProt F1CEY0)
ALB: Albumin (ALB, Homo sapiens, UniProt P02768)

With `COC(=O)c1cc(C(C)=NNc2nc(-c3ccc4c(c3)OCCCO4)cs2)ccc1O` the Vmax was 7140 ΔRFU/min (PTPN1 (Homo sapiens, UniProt P18031); enzyme activity, inhibitor; 0.1 µM).
`CC(=O)Nc1ccc(O)cc1` — result for “chemical shift change”: -0.127 ppm (BRD4 (Homo sapiens, UniProt O60885); 19F NMR, refers to: tyrosine 97; 188 µM; relative to: free protein).
`O=C(CCCCCCC(=O)Nc1ccccc1)NO` gave a TΔS° of 1.77 kcal/mol (HDAC8 (Homo sapiens, UniProt Q9BY41); ITC; Tris-HCl buffer; 283 K).
`Nc1ccc(C(=O)O)cc1` gave a current density of 5.25 pA/pF and 12.1 pA/pF and 10.1 pA/pF and 17.4 pA/pF and 11.8 pA/pF and 6.51 pA/pF (BEST1, with wild-type BEST1 (Homo sapiens, UniProt O76090, D302A); ion current, whole-cell patch clamp; HEK293 co-expressing mutant and wild-type; concentration not given, voltage 60 mV).
For `COc1cc(Nc2ncc3c(n2)-c2ccc(Cl)cc2C(c2c(F)cccc2OC)=NC3)ccc1C(=O)O`, the remaining activity was 102% (ADRBK1; kinase activity; 1 µM).
With `Nc1ncnc2c1ncn2[C@@H]1O[C@H](COP(=O)(O)OP(=O)(O)O)[C@@H](O)[C@H]1O` the Km was 29 ± 3 µM (CKMT1A (Homo sapiens, UniProt P12532, H99K); substrate, Kinase-Glo luminescence; pH 7.0, reverse reaction, H61K mutant, with: second substrate in excess).
The activation of `CN1CCN(c2cc(-c3ccncc3)c(-c3ccc4ccccc4c3)nn2)CC1` is reported as -1.4% (CCR1 (Homo sapiens, UniProt P32246); agonist, FLIPR; 12.5 µM).
For `O=C(c1ccc(F)cc1)c1c[nH]c(C(=O)NCCCn2ccnc2)c1`, the ligand efficiency was 0.29 (ADORA2A (Homo sapiens, UniProt P29274); radioligand displacement; with: [3H]ZM241385).
With `O=c1nc(SCc2cc(F)cc(C(F)(F)F)c2)nc(SCc2ccc3nc(Cl)ccc3c2)[nH]1` the decatenated DNA was 78% (TOP2A (Homo sapiens, UniProt P11388); decatenation; 7.8 µM, replicate 1).
`Cc1cc(-c2ccnc3[nH]cc(F)c23)cc(F)c1[C@@]1(O)[C@H](C)CN(C(=O)CN)C[C@@H]1C`: “probe labelling inhibition” 9.4% (JAK1 (Homo sapiens, UniProt P23458); ATP/ADP probe binding, KiNativ; HEK293T lysate; 0.1 µM, activation loop domain 2).
`OC[C@H]1OC(O)[C@H](O)[C@@H](O)[C@@H]1O` (stereo partly shown) has a kcat of 38 ± 23 s⁻¹ (Hexokinase-3 (HK3, Homo sapiens, UniProt P52790, N221A); substrate inhibition; mutant N221A, complete substrate inhibition model, with: ATP 20 mM).
For `NCCS(=O)(=O)O`, “normalised MST signal” read -0.0176 (SLC6A6 (Homo sapiens, UniProt P31641, Y138A); binding, microscale thermophoresis; 488 nM, room temperature, with: 50 nM labelled protein; higher = more binding).
For `CC[C@@H]1[C@H](F)C(=O)N[C@@H]1COc1nccc2cc(C(N)=O)c(OC)cc12`, the inhibition was 21.5% (SNRK (Homo sapiens, UniProt Q9NRH2); ATP-site probe binding, ActivX profiling; THP-1 cell lysate; 0.2 mM, Lys2 site).
`CCCCCC=O` gave a relative fluorescence of 80.1% (uncharacterized protein; binding, competitor, fluorescence displacement; 20 µM, pH 7.4, with: 1-NPN 20 µM; relative to: 1-NPN alone).
`N[C@H](CNC(=O)c1cc(Br)c(-c2ccccc2Br)s1)C(=O)O` has a Hill slope of 1.37 (Glutamate receptor ionotropic, NMDA 1, with GluN2A (Grin1, Rattus norvegicus, UniProt P35439); with: glutamate 300 µM).
With `CCN1CCN(c2cc(N3CCN(CC)CC3)nc(NCCNc3ccnc4cc(Cl)ccc34)n2)CC1` the activation was 1.79 fold (RXRA (Homo sapiens, UniProt P19793); reporter gene, Gal4 hybrid reporter; 20 µM; relative to: vehicle).
`N[C@H](CNC(=O)c1ccc(-c2cccc(F)c2F)s1)C(=O)O` has a Hill slope of 1.45 (Glutamate receptor ionotropic, NMDA 1, with GluN2D (Grin1, Rattus norvegicus, UniProt P35439); with: glutamate 300 µM).
For `CC(C)c1ccccc1`, the relative fluorescence was 69.2% (uncharacterized protein; binding, competitor, fluorescence displacement; 20 µM, pH 7.4, with: 1-NPN 20 µM; relative to: 1-NPN alone).
For `CC[C@H](C)[C@@H]1NC(=O)[C@H](Cc2ccc(-c3ccccc3)cc2)NC(=O)[C@H](CC(C)C)NC(=O)[C@@H]2CCCN2C(=O)[C@@H](NC(=O)[C@H](CCCNC(=N)N)NC(=O)[C@H](CCCNC(=N)N)NC(C)=O)CSSC[C@@H](C(=O)N[C@@H](CCCNC(=N)N)C(=O)N[C@@H](CCCNC(=N)N)C(N)=O)NC(=O)[C@H](CCC#N)NC(=O)[C@@H]2CCCN2C(=O)[C@H](CC(=O)O)NC(=O)[C@H](Cc2ccc(O)cc2)NC(=O)[C@H](CO)NC1=O`, “lowest bound protein concentration” read 0.04 µM (GTPase KRas, GDP-bound (KRAS, Homo sapiens, UniProt P01116, G12D); affinity selection mass spectrometry; mixture library 4, with: protein titration up to 2.5 µM; lower is stronger binding).
Under “Gibbs free energy change”, `O=c1cc(CO)occ1[O-].[Cl-].[W+4].c1cc[cH-]c1.c1cc[cH-]c1` is recorded as -6.02 kcal/mol (ALB; binding, fluorescence quenching; 317 K).
For `O=C1NC(=O)C2(N1)c1ccccc1-c1ccccc12`, “reversal of binding enhancement” read 0.67 (GABA-A receptor alpha-1/beta-3, with gamma-2 subunit (GABRA1/GABRB3, Homo sapiens, UniProt P14867+P28472); [3H]muscimol binding; concentration not given, unit not given, with: [3H]muscimol and anaesthetic; lower is stronger).
`C=CC[C@@H]1c2ccc(OC)c(OC)c2CN2CCc3cc4c(cc3[C@H]12)OCO4` gave an inhibition ratio of 0.843 and 0.851 and 0.814 (P2X purinoceptor 7 (P2RX7, Homo sapiens, UniProt Q99572); ATP-evoked current, inhibitor, whole-cell patch clamp; HEK293 transfected; 1 µM, wild type, with: ATP 1 mM; relative to: ATP alone).
The reaction velocity of `Nc1nc2c(ncn2[C@@H]2O[C@H](COP(=O)(O)O)[C@@H](O)[C@H]2O)c(=O)[nH]1` is reported as 0.0664 µM/s and 0.0651 µM/s and 0.0673 µM/s (GUK1 (Homo sapiens, UniProt Q16774); enzyme activity, NADH-coupled; 125 µM, with: NaCl 10 mM).
`CCN1CCC[C@H]1CNC(=O)c1c(O)c(Cl)cc(Cl)c1OC` — result for “log2 fold change”: 0.183 (G-protein coupled receptor 78 (GPR78, Homo sapiens, UniProt Q96P69); β-arrestin recruitment, TANGO luminescence, refers to: GPR78; concentration not given; relative to: basal luminescence).
`COc1cc(-c2cncc3c2CN(C)Cc2cc(N4CCNCC4)ccc2-3)cc(OC)c1OC` gave a remaining activity of 96% (EIF2AK1 (Homo sapiens, UniProt Q9BQI3); kinase activity; 1 µM, human enzyme, with: ATP 10 µM; relative to: DMSO control).
`CC[C@H](C)[C@@H]1NC(=O)[C@H](C(C)C)NC(=O)[C@H](C(C)C)NC(=O)[C@H](CC(C)C)NC(=O)C[C@@H](C(=O)N[C@@H](Cc2c[nH]c3ccccc23)C(=O)N[C@@H](CC(N)=O)C(=O)N[C@@H](C)C(=O)N2CCC[C@H]2C(=O)NCC(=O)N[C@@H](Cc2c[nH]c3ccccc23)C(=O)N[C@@H](Cc2ccc(O[C@@H]3O[C@H](CO)[C@@H](O)[C@H](O)[C@H]3O)cc2)C(=O)O)NC(=O)[C@H](C)NC(=O)[C@H](CCC(N)=O)NC(=O)[C@H](C(C)C)NC1=O` — result for “OD450 in LPS binding ELISA”: 0.42 a.u. and 0.4 a.u. and 0.404 a.u. and 0.419 a.u. (TLR4 (Homo sapiens, UniProt O00206); antagonist, ELISA; 1 µg/mL, with: LPS; relative to: DMSO control, lower means stronger antagonism).
`Nc1ncnc2c1ncn2[C@@H]1O[C@H](COP(=O)(O)CP(=O)(O)OP(=O)(O)O)[C@@H](O)[C@H]1O` has a specific binding of 1270 CCPM and 592 CCPM and 773 CCPM (P2X purinoceptor 1 (P2RX1, Homo sapiens, UniProt P51575, M214A); saturation binding; HEK293; 52 nM).
With `COc1cc(-c2[o+]c3cc(O)cc(O)c3cc2O[C@@H]2O[C@H](CO)[C@@H](O)[C@H](O)[C@H]2O)cc(O)c1O` the bathochromic shift was 69 nm (ALB; binding, visible absorption; 50 µM, pH 7, with: HSA up to 200 µM; relative to: without HSA).
Under “melting temperature shift”, `O=c1cc(-c2ccc([N+](=O)[O-])cc2)[nH]c2c(-c3ccc(Cl)cc3)c(Cc3ccccc3)nn12` is recorded as 3.6 °C (Ras-related GTP-binding protein A (RRAGA, Homo sapiens, UniProt Q7L523); thermal stability, binder, thermal proteome profiling; RD, cell lysate; 50 µM, 0.5% DMSO; relative to: DMSO vehicle).
For `Oc1ccccc1-c1n[nH]cc1-c1ccnc2ccccc12`, “log2 fold change” read 0.13 (Aurora kinase (IPL1, Candida albicans, UniProt Q59S66); kinase binding, MIB/MS competition; Candida albicans lysate; 1 µM; relative to: DMSO, negative = stronger binding).
The maximum response of `CCOc1ccc(NC(=O)O[C@@H](Cn2nc(C(C)C)cc2C(C)C)C(C)C)cc1` is reported as 18.8 ± 0.8 fold (Neuronal acetylcholine receptor; alpha4/beta2 (Homo sapiens, UniProt P17787+P43681); two-electrode voltage clamp; Xenopus oocytes; concentration not given, low-sensitivity stoichiometry, with: ACh 100 µM; relative to: ACh alone).
